Results pooled from the literature.
Parts stem from different laboratories: compare values within a part only. Values joined by “and” are separate records of one study, mostly repeats; a detail may differ.

Study 1
Target: 5-hydroxytryptamine receptor 5A (HTR5A, Homo sapiens, UniProt P47898)
Sequence of UniProt P47898 (whole entry, looked up): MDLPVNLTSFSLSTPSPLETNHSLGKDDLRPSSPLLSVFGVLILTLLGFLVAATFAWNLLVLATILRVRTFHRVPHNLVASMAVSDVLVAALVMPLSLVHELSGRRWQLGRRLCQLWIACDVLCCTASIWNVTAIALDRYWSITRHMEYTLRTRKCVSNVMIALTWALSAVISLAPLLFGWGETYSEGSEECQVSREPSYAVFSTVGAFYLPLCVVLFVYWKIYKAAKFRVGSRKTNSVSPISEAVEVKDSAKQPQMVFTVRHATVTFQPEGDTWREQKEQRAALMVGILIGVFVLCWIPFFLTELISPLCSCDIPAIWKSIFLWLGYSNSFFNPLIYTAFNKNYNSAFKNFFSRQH
Read-out: cell-free assay
Concentration: 10 µM
SMILES | inhibition [%]
O=C([C@H]1C[C@H](O)CN1c1ccc(Cl)cc1)N1CC2COCC(C1)N2Cc1ccc(Cl)cc1 | -1.82
Cc1ccc(-c2cnc([C@@]3(O)CC[C@H](C(=O)O)C(C)(C)C3)s2)cc1Nc1cccc(C(F)(F)F)n1 | -4.56
CCS(=O)(=O)c1cc2cc(C[C@@](O)(CC(C)(C)c3ccc(F)cc3C(N)=O)C(F)(F)F)[nH]c2cn1 | -11.6
CNCc1ccccc1-c1csc([C@@H](C)Nc2nc(C)nc3cc(OC)c(OC)cc23)c1 | 68.5
CNC(=O)Nc1ccc2c(c1)[C@]1(CC2)OC(=O)N(CC(=O)N(Cc2ccc(F)cc2)[C@@H](C)C(F)(F)F)C1=O | 2.78
O=C(c1ccc(F)cc1)N1CC(COc2ccc(Br)cc2)(C(=O)O)C1 | -14.3
Cc1cc(C)c(-n2ccn3nc(-c4cccnc4)cc23)cc1NC(=O)c1cc(C#N)cc(S(F)(F)(F)(F)F)c1 | 9.57
NS(=O)(=O)c1cc(NC(=O)C2(c3ccccc3Cl)CC2)ccc1Oc1cccc(Cl)c1 | 5.57
c1ccc(N2CCN(Cc3nc4ccccc4[nH]3)CC2)nc1 | 10.6
CO[C@@H](C)c1c(Nc2ccc([C@H](N(C)C(=O)C3CCS(=O)(=O)CC3)C(F)(F)F)cc2)cnc2cc(Cl)nn12 | -13.3
Cc1c(N2CCCC2)nc2ccc(Br)cc2c1C(=O)NC[C@H](CCC(=O)O)c1ccccc1Cl | -5.32
N#CN1CC[C@@H](C(=O)Nc2nc3c(s2)CN(C(=O)CN=[N+]=[N-])CC3)C1 | 9.64
O=C(NCc1ncc(C(F)(F)F)cc1Cl)c1ccc2c(c1)C1(CCS(=O)(=O)CC1)[C@H](C1CC1)N2S(=O)(=O)c1ccc(F)cc1 | -8.25
C[C@H](NC(=O)Nc1cc2[nH]ncc2c(CO)n1)c1ccccn1 | 9.46
CN1CCN(C(=O)C(C)(C)c2ccc(C(=O)Nc3cn4cc(-c5ccncc5)ccc4n3)cc2)CC1 | 4
Cc1ncc(-c2cc(Cl)ccc2F)cc1-n1c(=O)n(CC(N)=O)c2ccccc21 | -0.66
Cn1cc(Cl)c2c(Oc3c(F)cc(Nc4cc(Cl)nc(N)n4)cc3F)ccnc21 | 0.35
CN(C)C(=O)Cn1cc(-c2nc(C3(c4ccc(-c5cnc(N)nc5)cc4)CC3)no2)cn1 | 0.23
CC(=O)C1=C(C)N(c2cccc(C(F)(F)F)c2)C(=O)N[C@H]1c1ccc(C#N)nc1 | 8.86
Cc1c(NC(=O)c2cc(C(N)=O)nc3cc(F)ccc23)c(C(F)(F)F)nn1Cc1ccc(C(C)(C)C)cc1 | 8.32
FC(F)(F)c1ccc2c(c1)nc(-c1cccnc1)n2C1CC1 | -2.64
CC1=C(C#N)C(c2ccc3[nH]nc(C)c3c2)C(C#N)=C(C)N1 | -11.2

Study 2
Target: Beta-1 adrenergic receptor (ADRB1, Homo sapiens, UniProt P08588)
Sequence of UniProt P08588 (whole entry, looked up): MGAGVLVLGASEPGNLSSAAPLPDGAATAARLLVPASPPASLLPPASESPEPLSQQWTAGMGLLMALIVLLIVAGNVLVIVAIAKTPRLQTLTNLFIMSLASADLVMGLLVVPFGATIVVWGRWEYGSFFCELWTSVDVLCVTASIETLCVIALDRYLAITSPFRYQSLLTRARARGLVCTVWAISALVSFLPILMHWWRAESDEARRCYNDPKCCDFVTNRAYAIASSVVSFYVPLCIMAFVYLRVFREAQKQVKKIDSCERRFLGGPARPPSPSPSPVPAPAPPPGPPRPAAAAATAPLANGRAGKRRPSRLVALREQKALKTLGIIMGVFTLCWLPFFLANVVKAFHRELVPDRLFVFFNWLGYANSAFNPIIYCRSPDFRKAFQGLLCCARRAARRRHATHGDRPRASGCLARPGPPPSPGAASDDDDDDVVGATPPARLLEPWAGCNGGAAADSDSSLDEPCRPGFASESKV
Action: agonist
SMILES | EC50 [µM]
O=C(O)c1ccnc(-c2ccnc(NCC(O)c3ccccc3Cl)n2)c1 (centres unmarked) | ≥ 100
COc1ccc(-c2ccc3ncc4c(c3c2)n(-c2ccc(N3CCNCC3)c(C(F)(F)F)c2)c(=O)n4C)cn1 | ≥ 100
Cc1cn([C@@H]2O[C@H](CO)[C@@H](O)[C@H]2O)c(=O)[nH]c1=O | ≥ 100
O=C(Nc1cc(-c2ccccn2)nn1-c1ccccc1)c1ccc2ccccc2n1 | ≥ 100
CC(C)c1noc(-c2ccc(N(C)CC(O)c3ccccc3)nc2)n1 (centres unmarked) | ≥ 100

Study 3
Host: mouse
Matrix: microsomes or S9
Concentration: 2 µM
Time: 0.5 h
Structure (SMILES) | remaining compound [%]
CN(C)c1nc(N)nc(CNc2nccc(C3CCCC3)n2)n1 | 0.418
COC(=O)[C@@]1(C)CCC(C(=O)Nc2ccccc2C(=O)O)C1(C)C (some centres unmarked) | 1.28
Cc1ccc(-c2nnc(C(C)N3CCc4sccc4C3)o2)cc1 (centres unmarked) | 0.241
COc1nc(NC(C)C)nc(N2C(=N)NC(=O)C2C)n1 (centres unmarked) | 81.5
CCn1cc(N(CC(C)C)C(=O)c2nncc3ccccc23)cn1 | 65.8
O=S(=O)(Nc1cccn2c(C3CCC3)nnc12)c1ccc2c(c1)OCCO2 | 33
Cn1nc(C(=O)NCCn2ccc(-c3ccsc3)n2)ccc1=O | 10.3

Study 4
Target: Mitogen-activated protein kinase kinase kinase kinase 4 (MAP4K4, Homo sapiens, UniProt O95819)
Sequence of UniProt O95819 (whole entry, looked up): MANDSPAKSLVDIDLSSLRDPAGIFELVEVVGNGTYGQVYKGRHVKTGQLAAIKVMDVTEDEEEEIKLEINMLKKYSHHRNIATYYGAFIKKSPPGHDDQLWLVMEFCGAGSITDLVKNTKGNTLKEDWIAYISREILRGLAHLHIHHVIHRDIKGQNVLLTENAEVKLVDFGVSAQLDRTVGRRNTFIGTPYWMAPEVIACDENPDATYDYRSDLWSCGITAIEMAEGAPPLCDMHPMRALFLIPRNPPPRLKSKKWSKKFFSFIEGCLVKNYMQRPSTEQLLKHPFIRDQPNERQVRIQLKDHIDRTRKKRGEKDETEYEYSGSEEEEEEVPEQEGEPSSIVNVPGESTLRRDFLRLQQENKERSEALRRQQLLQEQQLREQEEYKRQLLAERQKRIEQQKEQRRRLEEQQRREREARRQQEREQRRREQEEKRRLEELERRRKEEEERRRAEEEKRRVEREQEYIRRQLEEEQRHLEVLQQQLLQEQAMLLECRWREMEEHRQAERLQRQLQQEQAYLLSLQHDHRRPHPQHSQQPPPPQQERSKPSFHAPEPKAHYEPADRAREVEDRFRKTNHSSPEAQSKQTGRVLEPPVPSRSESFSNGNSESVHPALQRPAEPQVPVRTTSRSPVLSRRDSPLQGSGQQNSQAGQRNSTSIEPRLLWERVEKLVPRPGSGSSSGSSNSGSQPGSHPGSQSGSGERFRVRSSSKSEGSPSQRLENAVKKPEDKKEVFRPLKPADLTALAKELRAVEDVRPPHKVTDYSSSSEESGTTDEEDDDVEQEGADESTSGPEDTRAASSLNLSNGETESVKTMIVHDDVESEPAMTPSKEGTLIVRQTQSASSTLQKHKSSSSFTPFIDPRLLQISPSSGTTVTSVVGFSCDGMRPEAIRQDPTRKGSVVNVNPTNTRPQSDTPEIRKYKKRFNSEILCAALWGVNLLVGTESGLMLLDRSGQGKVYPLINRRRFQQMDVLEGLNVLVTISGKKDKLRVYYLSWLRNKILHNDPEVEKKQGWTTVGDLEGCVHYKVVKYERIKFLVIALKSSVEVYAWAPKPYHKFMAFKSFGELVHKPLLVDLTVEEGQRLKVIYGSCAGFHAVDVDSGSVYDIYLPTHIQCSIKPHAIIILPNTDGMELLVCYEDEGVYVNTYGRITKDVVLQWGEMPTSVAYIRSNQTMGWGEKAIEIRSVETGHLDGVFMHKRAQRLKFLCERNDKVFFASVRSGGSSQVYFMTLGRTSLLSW
Read-out: enzyme activity
Action: inhibitor
Concentration: 0.5 µM
Baseline: control
SMILES | remaining activity
O=C(O)c1ccc2c3c1cccc3c(=O)n1c3ccccc3nc21 | 43.4%
COc1ccc(C(=O)Nc2sc3c(c2C(N)=O)CCCC3)cc1OC | 79.9%
Nc1ncnc2n[nH]c(Nc3ccc(F)cc3)c12 | 59.4%
OCC(O)CCON=C1C(c2c(O)[nH]c3ccccc23)=Nc2ccccc21 (centres unmarked) | 11.6%
COc1ccc(OC)c2c(=S)c3ccccc3[nH]c12 | 101%
O=S(=O)(c1cccc2cnccc12)N1CCCNCC1 | 44.1%
O=C1NC(=O)C(c2cn(CCCO)c3ncccc23)=C1c1cnccn1 | 36.4%
Nc1ccc2ncnc(NCCc3ccc(Oc4ccccc4)cc3)c2c1 | 99.2%
Cc1nc(-c2ccccc2)c(-c2ccncc2)o1 | 85.1%
CNC(=O)c1cc(Oc2ccc(NC(=O)Nc3ccc(Cl)c(C(F)(F)F)c3)cc2)ccn1 | 96.1%
O=C(Nc1cccc(Nc2cc(Nc3cccc(C(F)(F)F)c3)ncn2)c1)C1CC1 | 102%
COc1ccc(CNC(=O)Nc2ncc([N+](=O)[O-])s2)cc1 | 98.8%
CCOC(=O)c1c(C)[nH]c(/C=C2\C(=O)Nc3ccccc32)c1C | 64.5%
Cn1sc(=O)n(Cc2ccccc2)c1=O | 97%
O=C1NC(=O)C(c2cn(CCCn3ccnc3)c3ccccc23)=C1Nc1ccccc1 | 64%

Single results of other studies
Compound | cell line | test | conditions | measurement | value
CC(C)C[C@@H]1NC(=O)[C@@H](N(C)C(=O)[C@H](CC2CCC2)NC(=O)[C@@H]2C[C@@H](F)CN2C(=O)C2(C(F)(F)F)CC(F)(F)C2)CCCCNC(=O)C2(CC2)NC(=O)[C@H](Cc2cc(Cl)ccc2Cl)N(C)C1=O | human CD34+ HSPC | EdU flow cytometry | 10000 nM, 24 h | G2-M phase cells | 9.04% and 8.12%

For quick reference, copied from above (study 1):
SMILES | inhibition [%]
CC(=O)C1=C(C)N(c2cccc(C(F)(F)F)c2)C(=O)N[C@H]1c1ccc(C#N)nc1 | 8.86
CC1=C(C#N)C(c2ccc3[nH]nc(C)c3c2)C(C#N)=C(C)N1 | -11.2
Cc1c(N2CCCC2)nc2ccc(Br)cc2c1C(=O)NC[C@H](CCC(=O)O)c1ccccc1Cl | -5.32
O=C(NCc1ncc(C(F)(F)F)cc1Cl)c1ccc2c(c1)C1(CCS(=O)(=O)CC1)[C@H](C1CC1)N2S(=O)(=O)c1ccc(F)cc1 | -8.25
Cc1c(NC(=O)c2cc(C(N)=O)nc3cc(F)ccc23)c(C(F)(F)F)nn1Cc1ccc(C(C)(C)C)cc1 | 8.32
